# Published values collected from several papers.
# Each line is one published result; not all experiments were run side by side. ± gives the spread as reported.
Molecule,test,test system,conditions,scale,endpoint,result
O=C(O)CCCC(=O)O,"DPPH scavenging, absorbance",,,,IC50,72 mg/L
CC(C)C[C@H](NC(=O)[C@H](Cc1ccccc1)NC(=O)CNC(=O)CNC(=O)[C@@H](N)Cc1ccc(O)cc1)C(=O)N[C@@H](CCCNC(=N)N)C(=O)N[C@@H](CCCNC(=N)N)C(=O)N[C@@H](CCC(N)=O)C(=O)N[C@@H](Cc1ccccc1)C(=O)O,,C57BL/6 mouse striatal membranes,concentration not given,reference: basal,stimulation,2.3 ± 0.1 fold
CC(C)C[C@H](NC(=O)[C@H](CC(N)=O)NC(=O)[C@@H](NC(=O)[C@@H](NC(=O)[C@@H](N)CCCNC(=N)N)C(C)C)[C@@H](C)O)C(=O)NCC(=O)N[C@@H](CCCNC(=N)N)C(=O)N1CCC[C@H]1C(=O)O,Griess,"RAW264.7, mouse","1000 µg/mL, 24 h, together with: heat-killed Cutibacterium acnes 100 µg/mL",reference: no peptide control,NO production,60%
CC(C)CCOP(=O)(O)Oc1c2c(c(OP(=O)(O)OCCC(C)C)c3c1C1CC3c3cc4c(cc31)C1CC4c3ccccc31)C1CC2c2cc3c(cc21)C1CC3c2ccccc21,liposome dye leakage,liposomes 200 nm,"30 min, together with: carboxyfluorescein 50 mM",,EC50,4.4 µM
O=c1c(O)c(-c2cc(O)ccc2O)oc2cc(O)cc(O)c12,,,1000 µg/mL,,ABTS radical scavenging,86.1 ± 2.31%
N[C@@H](Cc1ccc(O)cc1)C(=O)N1CCC[C@H]1C(=O)NCC(=O)NCC(=O)O,"diketopiperazine formation, transition state theory",1-propanol,"concentration not given, 70, 80, 90 °C, 0.5% acetic acid",,enthalpy of activation,75 ± 15 kJ/mol
O=C(O)/C=C/c1ccc(O)cc1,,,125 µg/mL,,ABTS radical scavenging,57.3 ± 1.6%
O=C(O)/C=C/c1cc(O)cc(O)c1,,,125 µg/mL,,ABTS radical scavenging,56.2 ± 2.11%
CCN(CCCCOc1ccc(CCC(=O)N2CCC(Cc3ccccc3)CC2)cc1OC)Cc1ccccc1,,"APP/PS1 transgenic mouse, plasma",dose not given,reference: untreated model,triglyceride level,decreased
somatostatin,,"Sprague-Dawley rat, streptozotocin-induced diabetes, retina","eye drops, 10 mg/mL, score 2",,GFAP-positive glial activation,0%
CCCCCCCCCCCCCCCC(=O)N[C@@H](CCC(=O)NCCOCCOCCC(=O)NCCOCCOCCC(=O)NCCCC[C@H](NC(=O)[C@H](CC(=O)O)NC(=O)[C@H](CC(C)C)NC(=O)[C@H](Cc1ccc(O)cc1)NC(=O)[C@H](CCCCN)NC(=O)[C@H](CO)NC(=O)[C@H](Cc1ccc(O)cc1)NC(=O)[C@H](CC(=O)O)NC(=O)[C@H](CO)NC(=O)[C@@H](NC(=O)[C@H](Cc1ccccc1)NC(=O)[C@@H](NC(=O)CNC(=O)[C@H](CCC(N)=O)NC(=O)[C@@H](CO)NC(=O)[C@@H](N)Cc1c[nH]cn1)[C@@H](C)O)[C@@H](C)O)C(=O)N[C@@H](CCCNC(=N)N)C(=O)N[C@@H](CCCNC(=N)N)C(=O)N[C@@H](C)C(=O)N[C@@H](CCC(N)=O)C(=O)N[C@@H](CC(=O)O)C(=O)N[C@@H](Cc1ccccc1)C(=O)N[C@H](C(=O)N[C@@H](CCC(N)=O)C(=O)N[C@@H](Cc1c[nH]c2ccccc12)C(=O)N[C@@H](CC(C)C)C(=O)N[C@@H](CC(C)C)C(=O)N[C@@H](CC(N)=O)C(=O)N[C@H](C(=O)NCC(=O)NCC(=O)N1CCC[C@H]1C(=O)N[C@@H](CO)C(=O)N[C@@H](CO)C(=O)NCC(=O)N[C@@H](C)C(=O)N1CCC[C@H]1C(=O)N1CCC[C@H]1C(=O)N1CCC[C@H]1C(=O)N[C@@H](CO)C(N)=O)[C@@H](C)O)C(C)C)C(=O)O,Western blot,"C57BL/6J mouse CCl4 model, liver",dose not given,,NFκB and IκBα phosphorylation,inhibited
CC(C)C[C@@H]1NC(=O)[C@@H](Cc2c[nH]c3ccccc23)NC(=O)[C@H](CCCNC(=N)N)NC(=O)[C@@H](CCC(=O)O)NC(=O)[C@H](CCC(N)=O)NC(=O)[C@@H](CCC(=O)O)NC(=O)[C@H](CCCNC(=N)N)NC(=O)[C@@H](Cc2c[nH]c3ccccc23)NC1=O,"16S rRNA sequencing, item: gut microbiota","LDLr-/- mice, Western diet, feces","oral, 35 mg/kg daily",reference: vehicle,time to increased Bacteroidetes/Firmicutes ratio,≤ 6 weeks
COc1ccc([N+](=O)[O-])cc1NC(=O)CCC(=O)[O][Zn][O]C(=O)CCC(=O)Nc1cc([N+](=O)[O-])ccc1OC.c1ccncc1,ABTS,,1000 µg/mL,,ABTS radical scavenging,80.5 ± 1.02%
CC[C@H](C)[C@H](NC(=O)[C@H](CCCNC(=N)N)NC(=O)[C@H](CCC(N)=O)NC(=O)[C@H](CC(=O)O)NC(=O)[C@H](CC(C)C)NC(=O)[C@H](CC(C)C)NC(=O)[C@H](CC(N)=O)NC(=O)[C@H](Cc1ccccc1)NC(=O)[C@H](CC(=O)O)NC(=O)[C@@H](NC(=O)[C@@H](NC(=O)[C@H](CC(N)=O)NC(=O)CNC(=O)[C@H](CO)NC(C)=O)C(C)C)[C@@H](C)CC)C(=O)N[C@H](C(=O)N[C@@H](Cc1c[nH]c2ccccc12)C(=O)N[C@@H](CCC(N)=O)C(=O)N[C@@H](CC(N)=O)C(=O)N[C@@H](Cc1c[nH]c2ccccc12)C(=O)N[C@@H](Cc1ccc(O)cc1)C(=O)N[C@@H](C)C(N)=O)[C@@H](C)CC,item: HA-51 tetramer,"tetramer+ CD4 T cells, PBMC, healthy adults, HLA-DRB1*0101","dose not given, CD62L−CD45RA+/− or CD62L+CD45RA−",,antigen-experienced T cells,31.7%
CCc1ccc(COP(=O)(O)Oc2c3c(c(OP(=O)(O)OCc4ccc(CC)cc4)c4c2C2CC4c4cc5c(cc42)C2CC5c4ccccc42)C2CC3c3cc4c(cc32)C2CC4c3ccccc32)cc1,liposome dye leakage,liposomes 200 nm,"30 min, together with: carboxyfluorescein 50 mM",,EC50,6.9 µM
CCOP(=O)(OCC)OCCCCOC(=O)CC1=C(C)C(=Cc2ccc([S+](C)[O-])cc2)c2ccc(F)cc21 (stereo not shown),,"BALB/c nude mice, orthotopic A549-GFP xenograft","inhalation, dose not given, died by week 8",,mortality,6%
CC[C@H](C)[C@H](NC(=O)[C@H](Cc1c[nH]c2ccccc12)NC(=O)[C@H](CCCNC(=N)N)NC(=O)[C@H](CCCCN)NC(=O)[C@H](CC(C)C)NC(=O)[C@H](CC(=O)O)NC(=O)[C@H](Cc1ccccc1)NC(=O)[C@H](C)NC(=O)[C@H](Cc1ccc(O)cc1)NC(=O)[C@H](CC(N)=O)NC(=O)[C@H](Cc1ccc(O)cc1)NC(=O)[C@H](CCCNC(=N)N)NC(=O)[C@H](Cc1ccc(O)cc1)NC(=O)[C@H](Cc1ccc(O)cc1)NC(=O)[C@@H](NC(=O)[C@H](CC(C)C)NC(=O)[C@H](C)NC(=O)[C@H](CC(N)=O)NC(=O)[C@H](Cc1ccc(O)cc1)NC(C)=O)[C@@H](C)CC)C(=O)N[C@@H](Cc1ccc(O)cc1)C(=O)N[C@@H](CC(C)C)C(N)=O,item: HA-15 tetramer,"tetramer+ CD4 T cells, PBMC, healthy adults, HLA-DRB1*0101","dose not given, CD62L−CD45RA+/− or CD62L+CD45RA−",,antigen-experienced T cells,23.1%
C=CCCCCOP(=O)(O)Oc1c2c(c(OP(=O)(O)OCCCCC=C)c3c1C1CC3c3cc4c(cc31)C1CC4c3ccccc31)C1CC2c2cc3c(cc21)C1CC3c2ccccc21,liposome dye leakage,liposomes 200 nm,"30 min, together with: carboxyfluorescein 50 mM",,EC50,18 µM
CCCCCCCCN(CCC(=O)Nc1ccccc1)C(=O)c1ccccn1,,Lmna G609G/G609G mouse,"intraperitoneal, 40 mg/kg",,minimum survival,158 days
CC(C)C[C@H](NC(=O)[C@H](C)NC(=O)CNC(=O)[C@H](CC(C)C)NC(=O)[C@@H](NC(=O)[C@H](CC(N)=O)NC(=O)[C@H](CCC(=O)O)NC(=O)[C@@H]1CCCN1C(=O)[C@@H]1CCCN1C(=O)[C@@H](NC(=O)[C@H](CCC(=O)O)NC(=O)[C@@H]1CCCN1C(=O)CNC(=O)[C@H](CC(C)C)NC(=O)[C@H](CC(=O)O)NC(=O)[C@H](CCC(N)=O)NC(=O)[C@H](CC(=O)O)NC(=O)[C@@H](NC(=O)[C@@H](N)CO)C(C)C)C(C)C)C(C)C)C(=O)N[C@@H](CC(C)C)C(=O)N[C@@H](CCCNC(=N)N)C(=O)N[C@H](C(=O)O)C(C)C,"evoked EPSC amplitude reduction, voltage clamp",rat PVN slices,,,EC50,~0.008 µM
CCCCCCCC/C=C\CCCCCCCCOP(O)(O)=S.N,,C57BL/6 mouse,"subcutaneous, 1 mg/kg, 24 h after irradiation, together with: 8.6 Gy total-body irradiation",,delay of death,4 days
CC[C@H](C)[C@H](NC(=O)[C@H](CCC(=O)O)NC(=O)CNC(=O)[C@@H](NC(=O)[C@H](CC(C)C)NC(=O)[C@H](CC(C)C)NC(=O)[C@H](CC(C)C)NC(=O)[C@H](CC(C)C)NC(=O)[C@H](CS)NC(=O)[C@H](CO)NC(=O)[C@H](Cc1ccccc1)NC(=O)CNC(=O)[C@H](CCCNC(=N)N)NC(=O)[C@@H]1CCCN1C(=O)[C@H](C)NC(=O)[C@H](CCSC)NC(=O)CNC(=O)CNC(=O)[C@H](Cc1ccccc1)NC(=O)[C@H](CCCCN)NC(=O)[C@H](Cc1c(C)cc(O)cc1C)NC(=O)[C@H](N)CCCNC(=N)N)[C@@H](C)O)C(=O)N[C@@H](CC(=O)O)C(=O)N[C@@H](CC(C)C)C(=O)N1CCC[C@H]1C(=O)N[C@H](C(=O)N[C@@H](CCCCN)C(=O)N[C@@H](CCCNC(=N)N)C(=O)N[C@@H](CCCNC(=N)N)C(=O)N[C@@H](C)C(N)=O)C(C)C,H&E staining,"female transgenic AD mice, hippocampal dentate gyrus","iv, 88.4 nmol/kg/day, 28 days",,pyknotic neuron area,decreased
CCN(Cc1ccccc1)C(=O)CCc1nc(CN2CCN(C(=O)Cc3ccc(OC)c(OC)c3)CC2)no1,current clamp,"L4-L6 DRG neurons, rat CCI model","1 µM, together with: 500 pA current injection",,action potential number,0.49 ± 0.29
CC[C@H](C)[C@H](NC(=O)[C@@H](NC(=O)[C@H](CC(=O)O)NC(C)=O)[C@@H](C)O)C(=O)N[C@@H](CCCNC(=N)N)C(=O)N[C@@H](CC(C)C)C(=O)N[C@@H](CC(C)C)C(=O)N[C@@H](Cc1ccccc1)C(=O)N[C@@H](CCC(N)=O)C(=O)N[C@@H](CC(C)C)C(=O)N[C@@H](CCSC)C(=O)N[C@@H](CCCNC(=N)N)C(=O)N1CCC[C@H]1C(=O)N1CCC[C@H]1C(=O)N[C@@H](CC(N)=O)C(=O)N[C@@H](CCSC)C(=O)N[C@H](C(=O)N1CCC[C@H]1C(=O)N[C@@H](C)C(=O)N[C@H](C(=O)N[C@@H](CC(N)=O)C(=O)N[C@@H](C)C(N)=O)C(C)C)[C@@H](C)O,item: HA-29 tetramer,"tetramer+ CD4 T cells, PBMC, healthy adults, HLA-DRB1*0101","dose not given, CD62L−CD45RA+/− or CD62L+CD45RA−",,antigen-experienced T cells,38.9%
Cc1ccc(/C=C/C(=O)O)cc1-c1cc2c(cc1C)C(C)(C)CCC2(C)C,"RNA sequencing, item: Inmt mRNA","rat, brain","dose not given, 24 h, single dose",reference: vehicle,log2 fold change,-0.41

# Excerpt of the above:
Molecule,test,test system,conditions,scale,endpoint,result
CCOP(=O)(OCC)OCCCCOC(=O)CC1=C(C)C(=Cc2ccc([S+](C)[O-])cc2)c2ccc(F)cc21 (stereo not shown),,"BALB/c nude mice, orthotopic A549-GFP xenograft","inhalation, dose not given, died by week 8",,mortality,6%
CC[C@H](C)[C@H](NC(=O)[C@H](Cc1c[nH]c2ccccc12)NC(=O)[C@H](CCCNC(=N)N)NC(=O)[C@H](CCCCN)NC(=O)[C@H](CC(C)C)NC(=O)[C@H](CC(=O)O)NC(=O)[C@H](Cc1ccccc1)NC(=O)[C@H](C)NC(=O)[C@H](Cc1ccc(O)cc1)NC(=O)[C@H](CC(N)=O)NC(=O)[C@H](Cc1ccc(O)cc1)NC(=O)[C@H](CCCNC(=N)N)NC(=O)[C@H](Cc1ccc(O)cc1)NC(=O)[C@H](Cc1ccc(O)cc1)NC(=O)[C@@H](NC(=O)[C@H](CC(C)C)NC(=O)[C@H](C)NC(=O)[C@H](CC(N)=O)NC(=O)[C@H](Cc1ccc(O)cc1)NC(C)=O)[C@@H](C)CC)C(=O)N[C@@H](Cc1ccc(O)cc1)C(=O)N[C@@H](CC(C)C)C(N)=O,item: HA-15 tetramer,"tetramer+ CD4 T cells, PBMC, healthy adults, HLA-DRB1*0101","dose not given, CD62L−CD45RA+/− or CD62L+CD45RA−",,antigen-experienced T cells,23.1%
